Published values pooled from the literature.
A part holds a random share of what one study measured.

Series 1
Target: Interferon regulatory factor 3, full length, phosphomimetic (IRF3, Homo sapiens, UniProt Q14653, residues 1-427, S386D/S396D/S398D/S402D/T404D/S405D)
Technique: protein-binding microarray
Form: double-stranded DNA, one strand shown
Matrix: in vitro
Concentration: 2540 nM top
Setting: 60-bp whole probe
Together with: salmon DNA 0.4 mg/ml
Reference: random background probes
Direction: higher = stronger binding
Constant ends, left off below: GCCTAGCAC … GTCTTGATTCGCTTGACGCTGCTG
Target sequence (chain): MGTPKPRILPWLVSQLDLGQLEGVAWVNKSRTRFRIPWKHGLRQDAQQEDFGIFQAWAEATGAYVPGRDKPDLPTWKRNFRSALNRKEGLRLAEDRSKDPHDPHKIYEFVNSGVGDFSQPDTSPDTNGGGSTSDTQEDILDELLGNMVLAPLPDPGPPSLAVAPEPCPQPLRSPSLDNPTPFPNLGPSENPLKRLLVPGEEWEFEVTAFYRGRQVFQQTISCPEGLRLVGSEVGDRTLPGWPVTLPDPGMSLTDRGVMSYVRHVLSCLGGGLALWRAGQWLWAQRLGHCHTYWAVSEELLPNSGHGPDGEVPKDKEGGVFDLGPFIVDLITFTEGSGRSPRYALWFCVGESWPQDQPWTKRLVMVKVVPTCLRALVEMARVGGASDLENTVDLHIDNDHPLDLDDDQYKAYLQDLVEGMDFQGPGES
Oligonucleotide | fitted relative affinity
CTAGATTTCGGGACTGGATTAGTGCTA | 1.57 z-score
TCATCTACAGGGTTTCACACTGTGCTA | 1.17 z-score
GACGAACTGCGTCTCGAGACGTGCTAG | -0.307 z-score
GACGGACTGGGGTTTCGGTACGTGCTA | 2.44 z-score
TTAGGTTTCGGTTTCGCTTAGTGCTAG | 10.8 z-score
GACGTACTGAGTCTCGAGACGTGCTAG | -0.198 z-score
CCTCCCTCTCCCGGAGTTCCGTGCTAG | 0.858 z-score
TTAGATTTAAGTTCCGATTAGTGCTAG | 1.82 z-score

Series 2
Target: Histone acetyltransferase KAT6A, winged helix 1, GST fusion (KAT6A, Homo sapiens, UniProt Q92794, residues 1-85)
Technique: protein binding microarray
Form: double-stranded DNA, one strand shown
Matrix: in vitro
Concentration: not given
Setting: 8-mer, flanks averaged, mean of 2 arrays, mostly near background
Reference: not given
Direction: higher = stronger binding
Residues (chain): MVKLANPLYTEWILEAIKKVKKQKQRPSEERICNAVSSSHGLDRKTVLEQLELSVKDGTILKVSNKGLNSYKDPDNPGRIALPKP
Oligonucleotide | E-score
AGGGCGTG | 0.127
CGCAGCAG | 0.0889
CTAGTAAG | -0.0849
CTCGATAC | 0.0104
GAACACCC | -0.0229
AATAGGCA | -0.0626
AGAAAAAT | -0.211
CATAGAAA | -0.16

Series 3
Target: Phosphate system positive regulatory protein PHO4, full length, GST-tagged (PHO4, Saccharomyces cerevisiae, UniProt P07270, residues 1-312)
Technique: competition protein-binding microarray
Form: double-stranded DNA, one strand shown
Matrix: in vitro
Concentration: 2 µM
Setting: whole 60-bp probe, lowest competitor level
Together with: Cbf1 competitor, 0.05 µM
Direction: higher = stronger binding
Target sequence (chain): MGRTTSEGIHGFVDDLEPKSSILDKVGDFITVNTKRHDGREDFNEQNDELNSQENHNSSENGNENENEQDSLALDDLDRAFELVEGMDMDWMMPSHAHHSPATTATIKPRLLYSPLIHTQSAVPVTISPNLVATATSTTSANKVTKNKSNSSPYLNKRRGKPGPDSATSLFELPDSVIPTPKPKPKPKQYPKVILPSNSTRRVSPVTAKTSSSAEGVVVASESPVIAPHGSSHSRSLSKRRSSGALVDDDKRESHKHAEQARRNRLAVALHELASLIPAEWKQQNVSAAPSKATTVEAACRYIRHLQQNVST
Oligonucleotide | fluorescence intensity [a.u.]
CTTCTGTAAATTTGGCCAGTGGGTGGACGCGCCCCGGTCTTGATTCGCTTGACGCTGCTG | 3620
CTTCTGTAAATTTGGTCGGTGGGTGGACGCGCCCCGGTCTTGATTCGCTTGACGCTGCTG | 3590
CTCAACATGGCAGAAGATGTGACGAATCTTATGCTTGTCTTGATTCGCTTGACGCTGCTG | 4830
CTTCTGTAAATTTGGCGGGTGGGTGGACGCGCCCCGGTCTTGATTCGCTTGACGCTGCTG | 5300

Mixed results
Molecule | target | assay | test system | setting | scale | quantity | result
PhoQ, residues 284 288 289 292 302 303 SLSVQF | PhoP, residues 12 14 15 18 19 VHTVL (Escherichia coli, UniProt P23836) | Sort-seq, measured: YFP reporter | E. coli | PhoQ-PhoP variant library, together with: 10 µM Mg2+ | reference: high Mg2+ state, higher = stronger signaling | fold induction | 0.717

A few entries again (series 1):
Oligonucleotide | fitted relative affinity
GACGGACTGGGGTTTCGGTACGTGCTA | 2.44 z-score
